# Assay results of several laboratories.
# A part holds a random share of what one study measured.
# UniProt Q9Y4K4, sequence (whole entry, looked up): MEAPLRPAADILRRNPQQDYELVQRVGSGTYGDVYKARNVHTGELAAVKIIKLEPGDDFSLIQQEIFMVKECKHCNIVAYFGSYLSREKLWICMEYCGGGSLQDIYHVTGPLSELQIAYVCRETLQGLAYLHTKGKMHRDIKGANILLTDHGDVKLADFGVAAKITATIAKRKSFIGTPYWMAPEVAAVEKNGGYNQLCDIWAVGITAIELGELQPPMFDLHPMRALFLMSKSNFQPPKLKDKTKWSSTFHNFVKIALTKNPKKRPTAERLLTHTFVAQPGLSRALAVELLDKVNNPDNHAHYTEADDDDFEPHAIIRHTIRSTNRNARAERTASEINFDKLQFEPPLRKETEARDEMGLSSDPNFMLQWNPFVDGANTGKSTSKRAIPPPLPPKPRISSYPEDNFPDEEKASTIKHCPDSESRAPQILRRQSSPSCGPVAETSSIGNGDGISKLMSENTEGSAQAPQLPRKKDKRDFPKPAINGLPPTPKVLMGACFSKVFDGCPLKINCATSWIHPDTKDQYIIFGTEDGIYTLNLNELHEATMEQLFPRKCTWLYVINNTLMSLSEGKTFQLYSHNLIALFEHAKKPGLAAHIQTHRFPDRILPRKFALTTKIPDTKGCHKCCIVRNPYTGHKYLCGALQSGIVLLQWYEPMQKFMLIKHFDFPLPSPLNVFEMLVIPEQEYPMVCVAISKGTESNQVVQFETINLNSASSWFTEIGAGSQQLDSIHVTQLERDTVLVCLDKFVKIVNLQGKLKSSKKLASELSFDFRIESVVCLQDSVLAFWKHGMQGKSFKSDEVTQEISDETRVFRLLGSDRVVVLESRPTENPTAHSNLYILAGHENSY
# UniProt P04629, sequence (whole entry, looked up): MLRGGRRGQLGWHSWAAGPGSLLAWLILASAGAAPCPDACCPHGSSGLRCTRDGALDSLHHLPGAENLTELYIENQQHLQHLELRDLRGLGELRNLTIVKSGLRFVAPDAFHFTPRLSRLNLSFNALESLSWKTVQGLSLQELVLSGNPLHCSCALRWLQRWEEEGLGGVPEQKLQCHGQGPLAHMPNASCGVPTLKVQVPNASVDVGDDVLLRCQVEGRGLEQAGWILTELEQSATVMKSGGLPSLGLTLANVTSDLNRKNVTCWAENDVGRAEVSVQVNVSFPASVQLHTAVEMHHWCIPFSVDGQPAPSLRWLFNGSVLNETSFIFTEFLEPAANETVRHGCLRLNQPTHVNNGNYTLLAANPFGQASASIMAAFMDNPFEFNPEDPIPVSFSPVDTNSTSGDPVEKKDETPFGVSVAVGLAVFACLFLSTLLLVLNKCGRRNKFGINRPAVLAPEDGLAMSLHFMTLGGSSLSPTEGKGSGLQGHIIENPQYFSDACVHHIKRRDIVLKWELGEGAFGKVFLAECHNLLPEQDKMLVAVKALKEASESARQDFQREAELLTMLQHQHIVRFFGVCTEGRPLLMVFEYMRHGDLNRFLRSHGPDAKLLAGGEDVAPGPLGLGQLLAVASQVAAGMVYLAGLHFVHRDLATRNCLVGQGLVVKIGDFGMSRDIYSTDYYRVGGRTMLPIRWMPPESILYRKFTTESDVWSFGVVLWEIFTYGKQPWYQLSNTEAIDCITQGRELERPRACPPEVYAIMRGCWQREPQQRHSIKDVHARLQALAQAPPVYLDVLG
# UniProt P42679, sequence (whole entry, looked up): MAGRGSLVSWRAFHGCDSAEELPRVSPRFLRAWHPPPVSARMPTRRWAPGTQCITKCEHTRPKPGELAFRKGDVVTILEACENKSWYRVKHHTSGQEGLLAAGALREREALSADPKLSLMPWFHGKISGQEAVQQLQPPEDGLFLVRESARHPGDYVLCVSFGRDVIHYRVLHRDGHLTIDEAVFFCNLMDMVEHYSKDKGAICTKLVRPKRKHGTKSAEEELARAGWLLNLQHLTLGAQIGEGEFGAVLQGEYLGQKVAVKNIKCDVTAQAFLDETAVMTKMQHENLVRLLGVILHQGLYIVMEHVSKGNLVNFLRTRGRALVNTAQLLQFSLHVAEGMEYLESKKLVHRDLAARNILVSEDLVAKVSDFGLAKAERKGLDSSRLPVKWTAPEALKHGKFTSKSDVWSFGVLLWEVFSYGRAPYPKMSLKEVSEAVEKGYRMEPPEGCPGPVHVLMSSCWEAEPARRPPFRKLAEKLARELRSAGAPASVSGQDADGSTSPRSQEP
# UniProt P51956, sequence (whole entry, looked up): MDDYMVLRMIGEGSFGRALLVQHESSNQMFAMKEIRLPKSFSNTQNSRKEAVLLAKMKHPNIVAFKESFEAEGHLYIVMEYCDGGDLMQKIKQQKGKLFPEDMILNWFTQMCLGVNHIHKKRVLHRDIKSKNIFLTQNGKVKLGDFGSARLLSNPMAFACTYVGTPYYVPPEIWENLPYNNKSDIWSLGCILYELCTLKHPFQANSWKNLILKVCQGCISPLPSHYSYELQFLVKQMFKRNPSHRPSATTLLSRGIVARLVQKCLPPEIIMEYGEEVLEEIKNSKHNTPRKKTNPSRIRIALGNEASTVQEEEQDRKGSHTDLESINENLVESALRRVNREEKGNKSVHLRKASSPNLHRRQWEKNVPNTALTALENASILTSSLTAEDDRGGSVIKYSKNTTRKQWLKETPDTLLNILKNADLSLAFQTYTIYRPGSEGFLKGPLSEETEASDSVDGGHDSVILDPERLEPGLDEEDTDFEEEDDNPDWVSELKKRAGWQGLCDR

# Series 1 — read-out: enzyme activity; action: inhibitor; concentration: 0.5 µM; baseline: control
# Target: Myosin light chain kinase, smooth muscle (MYLK, Homo sapiens, UniProt Q15746)
# UniProt Q15746, sequence (whole entry, looked up): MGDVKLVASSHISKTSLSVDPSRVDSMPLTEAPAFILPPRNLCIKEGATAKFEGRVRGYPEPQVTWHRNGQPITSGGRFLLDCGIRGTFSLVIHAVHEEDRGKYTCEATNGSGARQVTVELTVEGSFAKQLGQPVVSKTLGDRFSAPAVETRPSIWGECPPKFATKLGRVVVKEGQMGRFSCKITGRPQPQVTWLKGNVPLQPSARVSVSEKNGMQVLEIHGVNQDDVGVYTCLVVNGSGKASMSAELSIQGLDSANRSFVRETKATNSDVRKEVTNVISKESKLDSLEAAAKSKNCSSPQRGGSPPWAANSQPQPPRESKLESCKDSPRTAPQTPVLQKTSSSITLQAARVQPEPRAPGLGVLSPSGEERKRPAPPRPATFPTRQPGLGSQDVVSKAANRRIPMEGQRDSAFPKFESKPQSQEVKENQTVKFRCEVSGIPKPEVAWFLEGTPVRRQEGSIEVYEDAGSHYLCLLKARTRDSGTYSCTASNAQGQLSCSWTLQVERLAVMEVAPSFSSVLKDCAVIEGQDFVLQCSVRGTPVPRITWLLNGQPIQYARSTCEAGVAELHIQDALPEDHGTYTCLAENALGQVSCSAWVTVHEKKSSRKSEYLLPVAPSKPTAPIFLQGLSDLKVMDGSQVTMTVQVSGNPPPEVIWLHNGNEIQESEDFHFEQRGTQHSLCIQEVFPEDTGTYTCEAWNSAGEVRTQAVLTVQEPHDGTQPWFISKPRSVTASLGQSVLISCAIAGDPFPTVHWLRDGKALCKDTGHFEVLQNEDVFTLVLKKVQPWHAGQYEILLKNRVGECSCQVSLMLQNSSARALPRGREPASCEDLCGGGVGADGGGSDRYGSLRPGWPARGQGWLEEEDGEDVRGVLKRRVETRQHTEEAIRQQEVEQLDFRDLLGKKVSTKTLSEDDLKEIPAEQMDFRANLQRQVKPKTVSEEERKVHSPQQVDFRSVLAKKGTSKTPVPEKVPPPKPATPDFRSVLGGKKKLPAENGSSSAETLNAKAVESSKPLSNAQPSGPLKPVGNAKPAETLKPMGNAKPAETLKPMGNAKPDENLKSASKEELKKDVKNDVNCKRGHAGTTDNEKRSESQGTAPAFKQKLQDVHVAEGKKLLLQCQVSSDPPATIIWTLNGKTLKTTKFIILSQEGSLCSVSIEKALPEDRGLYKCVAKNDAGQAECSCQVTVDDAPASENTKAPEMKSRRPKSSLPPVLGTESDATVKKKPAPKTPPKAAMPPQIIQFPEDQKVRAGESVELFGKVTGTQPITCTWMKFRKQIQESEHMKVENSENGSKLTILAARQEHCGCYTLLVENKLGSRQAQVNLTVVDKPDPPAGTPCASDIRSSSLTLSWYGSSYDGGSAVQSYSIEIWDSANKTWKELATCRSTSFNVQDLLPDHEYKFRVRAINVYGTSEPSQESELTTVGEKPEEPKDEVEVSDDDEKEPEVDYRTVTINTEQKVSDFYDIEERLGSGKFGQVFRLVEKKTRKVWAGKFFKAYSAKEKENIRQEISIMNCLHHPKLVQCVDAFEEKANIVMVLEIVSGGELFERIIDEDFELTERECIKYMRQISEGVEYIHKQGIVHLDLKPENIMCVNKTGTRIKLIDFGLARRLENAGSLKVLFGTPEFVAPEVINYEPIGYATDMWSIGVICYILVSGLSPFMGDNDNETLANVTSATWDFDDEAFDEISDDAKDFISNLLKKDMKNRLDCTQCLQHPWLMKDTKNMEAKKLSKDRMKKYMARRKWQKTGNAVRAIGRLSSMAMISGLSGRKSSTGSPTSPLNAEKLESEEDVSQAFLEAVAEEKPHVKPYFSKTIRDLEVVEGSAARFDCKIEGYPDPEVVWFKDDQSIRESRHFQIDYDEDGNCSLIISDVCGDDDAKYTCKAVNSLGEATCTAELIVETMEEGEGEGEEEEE
SMILES,remaining activity [%]
CN(C)C[C@H]1CCn2c(c(C3=C(c4cn(C)c5ccccc45)C(=O)NC3=O)c3ccccc32)C1,84
CCN(CC)C(=O)c1ccc(Nc2nc(OCC3CCCCC3)c3[nH]cnc3n2)cc1,91.6
CCN(CC)CCNC(=O)c1c(C)[nH]c(/C=C2\C(=O)Nc3ccc(F)cc32)c1C,25.6
Cc1nc2cc3nc(-c4cccs4)cnc3cc2n1C,97
N#Cc1c(NC(=O)c2cccc3ccccc23)sc2c1CCCC2,98.7
COc1cc2c(cc1OC)-c1[nH]nc(Nc3cccc(F)c3)c1C2,102
C[C@@H]1CCN(C(=O)CC#N)C[C@@H]1N(C)c1ncnc2[nH]ccc12,89.9
COc1cc2ncnc(Nc3ccc(O)c(Br)c3)c2cc1OC,84.6
N#C/C(=C\c1ccc(O)c(O)c1)C(=O)NCc1ccccc1,94.5
CCN(CC)CCNC(=O)c1c(C)[nH]c(/C=C2\C(=O)Nc3ccc(Cl)cc32)c1C,17.6
O=C1C(Cl)=C(N2C(=O)CCC2=O)C(=O)c2ccccc21,99.4
COc1cc2ncnc(Nc3cccc(Cl)c3)c2cc1OC,89
Cc1cc2ncc(-c3ccccc3)nc2cc1C,102
Ic1cccc(CSc2nnc(-c3ccncc3)o2)c1,99.1
CCOc1nc(NC(=O)Cc2cc(OC)ccc2OC)cc(N)c1C#N,96.5
O=C(Nc1cccc(Nc2nccc(Nc3cccc(C(F)(F)F)c3)n2)c1)C1CC1,90
Cc1cn(-c2cc(NC(=O)c3ccc(C)c(Nc4nccc(-c5cccnc5)n4)c3)cc(C(F)(F)F)c2)cn1,93.3
O=C(NC(NC(=S)Nc1ccc(F)c([N+](=O)[O-])c1)C(Cl)(Cl)Cl)C(c1ccccc1)c1ccccc1 (centres unmarked),99.6
O=c1cc(-c2cccc3c2Sc2ccccc2S3)oc(N2CCOCC2)c1,102
c1ccc(-c2[nH]ncc2-c2ccnc3ccccc23)nc1,105
CN([C@@H](Cc1ccc(OS(=O)(=O)c2cccc3cnccc23)cc1)C(=O)N1CCN(c2ccccc2)CC1)S(=O)(=O)c1cccc2cnccc12,98.2
c1ccc(-c2cnc(Nc3ccc(OCCN4CCCC4)cc3)s2)cc1,96.9
Cn1nc2c3c(cccc31)C(=O)c1ccccc1-2,77.4

# Series 2 — action: binding; method: isothermal titration calorimetry; temperature: 15 °C
# Target: Bromodomain-containing protein 4, BD1 (BRD4, Homo sapiens, UniProt O60885)
SMILES,ΔG
CC(C)CCN1c2nc(Nc3cc(F)c(O)c(F)c3)ncc2N(C)C(=O)C1C (centres unmarked),-7.1 kcal/mol
CC[C@@H]1C(=O)N(C)c2cnc(Nc3ccc(C(=O)N[C@H]4CC[C@H](N5CCN(CC6CC6)CC5)CC4)cc3OC)nc2N1C(C)C,-9.35 kcal/mol
Cc1cnc(Nc2ccc(N3CCN(C)CC3)cc2)nc1Nc1cccc(S(=O)(=O)NC(C)(C)C)c1,-9.1 kcal/mol
Cc1cnc(Nc2ccc(OCCN3CCCC3)cc2)nc1Nc1cccc(S(=O)(=O)NC(C)(C)C)c1,-8.94 kcal/mol

# Series 3 — method: competition with immobilised ligand; concentration: 0.1 µM
# Compound: CCOC(=O)c1cc2cc(-c3cc(C(=O)NCc4ccc(C(=O)O)cc4)nn3C)ccc2[nH]1
target,read-out,remaining binding
"HIPK1 (Homo sapiens, UniProt Q86Z02)",cell-free assay,91%
"MAP4K5 (Homo sapiens, UniProt Q9Y4K4)",cell-free assay,93%
"Tyrosine-protein kinase ABL1, non-phosphorylated (ABL1, Homo sapiens, UniProt P00519, F317I)",binding,80%
"EPHA2 (Homo sapiens, UniProt P29317)",cell-free assay,100%
"Ribosomal protein S6 kinase alpha-6, C-terminal kinase domain (RPS6KA6, Homo sapiens, UniProt Q9UK32)",cell-free assay,93%
"MATK (Homo sapiens, UniProt P42679)",cell-free assay,96%
"SYK (Homo sapiens, UniProt P43405)",cell-free assay,100%
"NTRK1 (Homo sapiens, UniProt P04629)",cell-free assay,89%
"EGFR (Homo sapiens, UniProt P00533, del752-759)",cell-free assay,100%
"Myosin-IIIa (MYO3A, Homo sapiens, UniProt Q8NEV4)",binding,100%
"EPHA5 (Homo sapiens, UniProt P54756)",cell-free assay,100%
"EGFR (Homo sapiens, UniProt P00533, del747-752/P753S)",cell-free assay,100%
"PRKACB (Homo sapiens, UniProt P22694)",cell-free assay,86%
"EPHA1 (Homo sapiens, UniProt P21709)",cell-free assay,100%
"PLK2 (Homo sapiens, UniProt Q9NYY3)",cell-free assay,80%
"DAPK3 (Homo sapiens, UniProt O43293)",cell-free assay,98%
"MAPK14 (Homo sapiens, UniProt Q16539)",cell-free assay,100%
"NEK3 (Homo sapiens, UniProt P51956)",cell-free assay,88%
"TEC (Homo sapiens, UniProt P42680)",cell-free assay,99%

# Series 4 — read-out: enzyme activity; action: inhibitor; concentration: 10 µM
# Target: Calcium/calmodulin-dependent protein kinase type II subunit alpha (CAMK2A, Homo sapiens, UniProt Q9UQM7)
# UniProt Q9UQM7, sequence (whole entry, looked up): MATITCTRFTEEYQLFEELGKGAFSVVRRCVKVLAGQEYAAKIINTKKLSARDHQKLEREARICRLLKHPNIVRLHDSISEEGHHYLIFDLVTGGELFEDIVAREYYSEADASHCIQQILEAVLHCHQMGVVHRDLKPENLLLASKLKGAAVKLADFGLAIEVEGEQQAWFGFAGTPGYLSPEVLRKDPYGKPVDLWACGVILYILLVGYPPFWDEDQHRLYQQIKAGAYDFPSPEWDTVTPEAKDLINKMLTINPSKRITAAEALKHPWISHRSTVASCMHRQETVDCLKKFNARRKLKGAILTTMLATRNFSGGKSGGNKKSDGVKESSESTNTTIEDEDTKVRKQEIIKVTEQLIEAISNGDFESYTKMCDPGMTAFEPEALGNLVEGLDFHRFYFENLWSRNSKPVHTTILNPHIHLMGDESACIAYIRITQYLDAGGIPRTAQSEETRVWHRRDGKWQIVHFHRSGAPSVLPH
SMILES,inhibition
CC(C)=CCc1c(-c2ccc(O)cc2O)oc2c([C@H]3C=C(C)C[C@@H](c4ccc(O)cc4O)[C@@H]3C(=O)c3ccc(O)cc3O)c(O)cc(O)c2c1=O,-12%
COc1cc(C[C@H](CO[C@@H]2O[C@H](CO)[C@@H](O)[C@H](O)[C@H]2O)[C@@H](CO[C@@H]2O[C@H](CO)[C@@H](O)[C@H](O)[C@H]2O)Cc2ccc(O)c(OC)c2)ccc1O,24%
COc1c(O)cc2occ(-c3ccc(O)cc3)c(=O)c2c1O,48%
CNNCc1ccc(C(=O)NC(C)C)cc1,1%
C[C@@H]1CC[C@@]2(OC1)O[C@H]1C[C@H]3[C@@H]4CC=C5C[C@@H](O[C@@H]6O[C@H](CO)[C@@H](O)[C@H](O)[C@H]6O[C@@H]6O[C@@H](C)[C@H](O)[C@@H](O)[C@H]6O)CC[C@]5(C)[C@H]4CC[C@]3(C)[C@H]1[C@@H]2C,4%
COc1ccc([C@@H]2CC(=O)c3c(O)cc(O[C@@H]4O[C@H](CO[C@@H]5O[C@@H](C)[C@H](O)[C@@H](O)[C@H]5O)[C@@H](O)[C@H](O)[C@H]4O)cc3O2)cc1,27%
CCCCC(=O)O[C@H]1CC[C@H]2[C@@H]3CCc4cc(O)ccc4[C@H]3CC[C@]12C,-10%
COC(=O)c1cc(OC)c(OC)c(OC)c1,-1%
CC(=O)O[C@@H](C[C@@H](C)C1=C2C[C@H](O)[C@H]3[C@@]4(C)CCC(=O)C(C)(C)[C@@H]4CC[C@]3(C)[C@@]2(C)CC1)[C@H]1OC1(C)C,7%
CC(C)(O)CC[C@@H](O)[C@](C)(O)[C@H]1CC[C@@]2(O)C3=CC(=O)[C@@H]4C[C@@H](O)[C@@H](O)C[C@]4(C)[C@H]3CC[C@]12C,18%

# For quick reference, copied from above (series 4):
SMILES,inhibition
CC(C)=CCc1c(-c2ccc(O)cc2O)oc2c([C@H]3C=C(C)C[C@@H](c4ccc(O)cc4O)[C@@H]3C(=O)c3ccc(O)cc3O)c(O)cc(O)c2c1=O,-12%
COc1cc(C[C@H](CO[C@@H]2O[C@H](CO)[C@@H](O)[C@H](O)[C@H]2O)[C@@H](CO[C@@H]2O[C@H](CO)[C@@H](O)[C@H](O)[C@H]2O)Cc2ccc(O)c(OC)c2)ccc1O,24%
COc1c(O)cc2occ(-c3ccc(O)cc3)c(=O)c2c1O,48%
CNNCc1ccc(C(=O)NC(C)C)cc1,1%
